# Published values from different studies.
# Every numbered part comes from another study and shows a few of its results, in no order. “And” joins repeats or separate records; there may be more than shown.
# Sequence of UniProt P35626 (whole entry, looked up): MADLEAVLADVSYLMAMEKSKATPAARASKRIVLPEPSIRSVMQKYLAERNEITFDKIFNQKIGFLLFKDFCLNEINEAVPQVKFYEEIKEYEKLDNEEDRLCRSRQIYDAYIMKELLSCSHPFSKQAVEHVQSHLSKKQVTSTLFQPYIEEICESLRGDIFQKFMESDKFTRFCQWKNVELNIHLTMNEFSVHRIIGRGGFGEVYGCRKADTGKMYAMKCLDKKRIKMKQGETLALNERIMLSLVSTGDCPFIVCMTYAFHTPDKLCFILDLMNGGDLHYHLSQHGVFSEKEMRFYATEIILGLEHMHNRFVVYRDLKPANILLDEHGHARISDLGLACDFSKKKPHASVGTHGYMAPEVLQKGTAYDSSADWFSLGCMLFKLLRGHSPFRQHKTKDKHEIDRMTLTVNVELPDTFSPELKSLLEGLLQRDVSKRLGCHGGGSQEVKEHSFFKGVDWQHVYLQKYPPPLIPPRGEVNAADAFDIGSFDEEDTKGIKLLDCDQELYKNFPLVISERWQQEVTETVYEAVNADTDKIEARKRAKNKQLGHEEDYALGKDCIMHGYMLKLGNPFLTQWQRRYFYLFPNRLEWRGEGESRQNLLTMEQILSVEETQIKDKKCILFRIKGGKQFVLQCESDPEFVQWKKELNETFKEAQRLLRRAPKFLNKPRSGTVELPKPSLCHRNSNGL
# Sequence of UniProt Q13163 (whole entry, looked up): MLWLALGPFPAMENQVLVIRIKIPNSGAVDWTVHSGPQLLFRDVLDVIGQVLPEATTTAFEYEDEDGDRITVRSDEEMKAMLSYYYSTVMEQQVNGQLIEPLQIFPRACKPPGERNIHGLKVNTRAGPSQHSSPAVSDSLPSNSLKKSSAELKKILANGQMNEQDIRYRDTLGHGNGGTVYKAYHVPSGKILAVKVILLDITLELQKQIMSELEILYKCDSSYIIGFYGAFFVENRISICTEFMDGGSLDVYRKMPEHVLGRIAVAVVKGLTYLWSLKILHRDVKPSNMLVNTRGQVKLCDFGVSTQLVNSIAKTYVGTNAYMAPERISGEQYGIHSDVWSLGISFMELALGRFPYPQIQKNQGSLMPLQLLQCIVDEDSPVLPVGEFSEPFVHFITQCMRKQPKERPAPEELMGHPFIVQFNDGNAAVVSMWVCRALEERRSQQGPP
# Sequence of UniProt Q9UKI8 (whole entry, looked up): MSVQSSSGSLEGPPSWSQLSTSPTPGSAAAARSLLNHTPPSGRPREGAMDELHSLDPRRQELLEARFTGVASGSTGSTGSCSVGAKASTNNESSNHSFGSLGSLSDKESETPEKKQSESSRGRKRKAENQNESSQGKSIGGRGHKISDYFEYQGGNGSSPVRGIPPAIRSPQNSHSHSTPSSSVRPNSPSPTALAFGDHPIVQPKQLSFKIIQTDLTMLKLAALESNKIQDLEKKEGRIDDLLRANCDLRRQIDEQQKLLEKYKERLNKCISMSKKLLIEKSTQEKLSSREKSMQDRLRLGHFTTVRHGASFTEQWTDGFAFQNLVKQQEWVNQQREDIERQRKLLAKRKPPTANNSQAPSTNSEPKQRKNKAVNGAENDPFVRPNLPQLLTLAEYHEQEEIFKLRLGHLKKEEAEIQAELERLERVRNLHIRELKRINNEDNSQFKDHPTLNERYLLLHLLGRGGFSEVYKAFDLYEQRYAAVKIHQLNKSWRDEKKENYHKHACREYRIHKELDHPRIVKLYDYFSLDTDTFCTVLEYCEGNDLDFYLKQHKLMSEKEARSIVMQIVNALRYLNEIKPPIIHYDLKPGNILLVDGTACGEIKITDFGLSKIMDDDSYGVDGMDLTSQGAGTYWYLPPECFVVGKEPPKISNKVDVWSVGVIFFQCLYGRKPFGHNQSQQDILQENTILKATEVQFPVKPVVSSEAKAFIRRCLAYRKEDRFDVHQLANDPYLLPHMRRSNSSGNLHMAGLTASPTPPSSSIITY
# Sequence of UniProt Q04912 (whole entry, looked up): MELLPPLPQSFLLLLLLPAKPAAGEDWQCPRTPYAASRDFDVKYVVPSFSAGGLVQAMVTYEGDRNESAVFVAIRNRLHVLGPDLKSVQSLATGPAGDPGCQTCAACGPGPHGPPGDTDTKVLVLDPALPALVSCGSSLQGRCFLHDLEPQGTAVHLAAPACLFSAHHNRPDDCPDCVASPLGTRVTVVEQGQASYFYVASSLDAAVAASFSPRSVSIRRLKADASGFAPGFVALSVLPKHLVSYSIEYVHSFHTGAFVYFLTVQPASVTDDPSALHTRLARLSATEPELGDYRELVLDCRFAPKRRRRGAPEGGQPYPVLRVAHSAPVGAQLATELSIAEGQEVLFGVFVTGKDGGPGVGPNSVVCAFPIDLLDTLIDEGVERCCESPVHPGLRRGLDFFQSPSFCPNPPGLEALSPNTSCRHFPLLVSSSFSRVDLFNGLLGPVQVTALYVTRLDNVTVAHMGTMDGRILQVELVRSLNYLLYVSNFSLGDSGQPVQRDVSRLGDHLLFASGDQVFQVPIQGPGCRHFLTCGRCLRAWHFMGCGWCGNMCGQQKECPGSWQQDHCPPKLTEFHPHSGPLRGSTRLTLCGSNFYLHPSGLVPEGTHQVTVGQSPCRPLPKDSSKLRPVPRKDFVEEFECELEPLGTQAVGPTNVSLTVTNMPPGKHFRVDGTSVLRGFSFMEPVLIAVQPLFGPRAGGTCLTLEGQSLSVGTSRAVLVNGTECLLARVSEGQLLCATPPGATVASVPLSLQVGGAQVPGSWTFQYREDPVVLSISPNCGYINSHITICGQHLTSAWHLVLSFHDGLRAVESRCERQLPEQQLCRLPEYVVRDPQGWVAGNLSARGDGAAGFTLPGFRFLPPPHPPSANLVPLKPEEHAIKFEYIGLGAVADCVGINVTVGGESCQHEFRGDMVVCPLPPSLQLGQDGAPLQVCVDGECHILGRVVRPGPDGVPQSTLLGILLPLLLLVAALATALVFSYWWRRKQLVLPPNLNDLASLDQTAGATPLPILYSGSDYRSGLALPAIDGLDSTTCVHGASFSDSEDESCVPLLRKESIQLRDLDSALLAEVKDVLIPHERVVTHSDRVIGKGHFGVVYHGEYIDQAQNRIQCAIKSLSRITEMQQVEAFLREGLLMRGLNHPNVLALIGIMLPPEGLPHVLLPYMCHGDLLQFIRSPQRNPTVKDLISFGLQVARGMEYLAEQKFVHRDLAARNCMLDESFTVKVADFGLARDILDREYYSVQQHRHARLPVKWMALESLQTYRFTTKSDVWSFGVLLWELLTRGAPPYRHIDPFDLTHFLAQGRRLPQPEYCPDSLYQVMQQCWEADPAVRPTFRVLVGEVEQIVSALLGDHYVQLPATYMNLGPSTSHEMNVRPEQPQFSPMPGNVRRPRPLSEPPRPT
# Sequence of UniProt P04629 (whole entry, looked up): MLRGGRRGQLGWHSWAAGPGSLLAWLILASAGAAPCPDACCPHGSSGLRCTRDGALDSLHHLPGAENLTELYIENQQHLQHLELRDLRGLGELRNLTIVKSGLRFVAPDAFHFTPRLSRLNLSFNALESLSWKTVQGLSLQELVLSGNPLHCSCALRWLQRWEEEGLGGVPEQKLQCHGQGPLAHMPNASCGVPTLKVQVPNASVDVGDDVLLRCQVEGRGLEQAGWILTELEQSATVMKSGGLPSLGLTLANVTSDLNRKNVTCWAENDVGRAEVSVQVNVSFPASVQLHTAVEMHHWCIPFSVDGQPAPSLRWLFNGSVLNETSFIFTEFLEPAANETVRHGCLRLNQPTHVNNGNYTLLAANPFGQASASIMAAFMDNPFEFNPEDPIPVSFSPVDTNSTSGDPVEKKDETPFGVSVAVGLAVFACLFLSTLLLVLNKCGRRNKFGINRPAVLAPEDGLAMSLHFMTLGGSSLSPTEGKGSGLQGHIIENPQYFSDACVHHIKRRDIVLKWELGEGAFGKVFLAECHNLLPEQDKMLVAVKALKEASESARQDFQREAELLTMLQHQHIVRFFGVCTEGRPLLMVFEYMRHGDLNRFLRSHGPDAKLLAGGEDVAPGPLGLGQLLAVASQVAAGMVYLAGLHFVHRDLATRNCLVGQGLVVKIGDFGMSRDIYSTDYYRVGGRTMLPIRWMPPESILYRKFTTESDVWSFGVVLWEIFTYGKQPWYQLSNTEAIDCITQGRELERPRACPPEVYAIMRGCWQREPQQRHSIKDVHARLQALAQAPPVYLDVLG
# Sequence of UniProt P27448 (whole entry, looked up): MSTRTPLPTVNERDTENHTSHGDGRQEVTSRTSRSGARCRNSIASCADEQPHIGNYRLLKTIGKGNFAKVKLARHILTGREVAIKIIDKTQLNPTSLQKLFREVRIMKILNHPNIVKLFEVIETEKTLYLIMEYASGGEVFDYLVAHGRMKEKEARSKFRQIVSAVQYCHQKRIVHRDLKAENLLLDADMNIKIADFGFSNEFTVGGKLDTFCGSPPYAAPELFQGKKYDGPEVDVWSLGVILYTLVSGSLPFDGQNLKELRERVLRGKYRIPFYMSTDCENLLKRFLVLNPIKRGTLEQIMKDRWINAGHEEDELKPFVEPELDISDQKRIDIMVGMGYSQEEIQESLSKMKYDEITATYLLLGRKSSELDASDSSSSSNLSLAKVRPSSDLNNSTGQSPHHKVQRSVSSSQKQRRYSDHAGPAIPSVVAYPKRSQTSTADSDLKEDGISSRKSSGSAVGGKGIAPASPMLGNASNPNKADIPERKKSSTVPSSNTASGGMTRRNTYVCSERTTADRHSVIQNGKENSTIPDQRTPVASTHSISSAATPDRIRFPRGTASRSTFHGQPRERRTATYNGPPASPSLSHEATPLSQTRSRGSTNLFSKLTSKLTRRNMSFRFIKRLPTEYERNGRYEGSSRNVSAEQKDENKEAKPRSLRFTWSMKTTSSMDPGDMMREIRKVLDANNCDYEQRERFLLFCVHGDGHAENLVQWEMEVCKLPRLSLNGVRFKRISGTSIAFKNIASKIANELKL

# Sample 1
# Compound: Cc1nc(C2CCN(C(=O)c3ccc(OC(F)(F)F)cc3N)CC2)c2ncc(N3CCN(C)CC3)cc2n1
# Effect on: cell-free assay
# Technique: competition with immobilised ligand
# Concentration: 1 µM
target,remaining binding [%]
"GRK3 (Homo sapiens, UniProt P35626)",93
"COQ8B (Homo sapiens, UniProt Q96D53)",93
"MST1R (Homo sapiens, UniProt Q04912)",82
"TBK1 (Homo sapiens, UniProt Q9UHD2)",100
"TLK1 (Homo sapiens, UniProt Q9UKI8)",100
"PHKG2 (Homo sapiens, UniProt P15735)",100
"MAPK7 (Homo sapiens, UniProt Q13164)",22
"EPHA6 (Homo sapiens, UniProt Q9UF33)",95
"NTRK1 (Homo sapiens, UniProt P04629)",85
"MAP2K5 (Homo sapiens, UniProt Q13163)",83
"EGFR (Homo sapiens, UniProt P00533)",86
"FGFR3 (Homo sapiens, UniProt P22607, G697C)",100
"TSSK3 (Homo sapiens, UniProt Q96PN8)",100
"EPHB4 (Homo sapiens, UniProt P54760)",92
"GRK7 (Homo sapiens, UniProt Q8WTQ7)",81
"Ribosomal protein S6 kinase alpha-1, C-terminal kinase domain (RPS6KA1, Homo sapiens, UniProt Q15418)",93
"AXL (Homo sapiens, UniProt P30530)",100
"MARK3 (Homo sapiens, UniProt P27448)",89
"IRAK1 (Homo sapiens, UniProt P51617)",100
"MAP3K9 (Homo sapiens, UniProt P80192)",97
"STK25 (Homo sapiens, UniProt O00506)",100
"WNK2 (Homo sapiens, UniProt Q9Y3S1)",100
"PHKG1 (Homo sapiens, UniProt Q16816)",100
"CDK8 (Homo sapiens, UniProt P49336)",100
"NEK9 (Homo sapiens, UniProt Q8TD19)",94

# Sample 2
# Structure (SMILES): c1ccc(Oc2ccc(Nc3c4c(nc5ccccc35)CCC4)cc2)cc1
# Organism: Leishmania donovani
assay,test system,conditions,inhibition
"parasite viability, resazurin","DD8, promastigotes",0.066 µM,-4% and -5%
parasite killing,"DD8, intracellular amastigotes","0.008 µM, 96 h",6%
"parasite growth, high-content imaging","MHOM/IN/80/DD8, amastigotes in THP-1 cells",40 µM,100%
parasite killing,"DD8, promastigotes","0.66 µM, 48 h",52% and 54%
parasite killing,"DD8, intracellular amastigotes","4 µM, 48 h",76% and 66% and 85%
"parasite growth, high-content imaging","MHOM/IN/80/DD8, amastigotes in THP-1 cells",8 µM,100%

# Sample 3
# Structure (SMILES): Cc1ccc(NC2=CC(=O)c3sc(C)nc3C2=O)cc1
# Effect on: enzyme activity
# Mode: inhibitor
# Concentration: 0.5 µM
# Baseline: control
target,remaining activity
"CAMK2D (Homo sapiens, UniProt Q13557)",93.2%
"Cyclin-dependent kinase 4, with cyclin D1 (CDK4, Homo sapiens, UniProt P11802)",92%
"MAP3K3 (Homo sapiens, UniProt Q99759)",120%
"DAPK2 (Homo sapiens, UniProt Q9UIK4)",91.9%
"DAPK1 (Homo sapiens, UniProt P53355)",105%
"Protein kinase C beta type, isoform beta-I (PRKCB, Homo sapiens, UniProt P05771)",95.7%
"IKBKB (Homo sapiens, UniProt O14920)",97.3%
"STK11 (Homo sapiens, UniProt Q15831)",85.6%
"CAMKK2 (Homo sapiens, UniProt Q96RR4)",92.5%
"IKBKE (Homo sapiens, UniProt Q14164)",102%
"cGMP-dependent protein kinase 1, isoform beta (PRKG1, Homo sapiens, UniProt Q13976)",96.3%
"Tyrosine-protein kinase Lyn, isoform B (LYN, Homo sapiens, UniProt P07948)",95.4%
"STK39 (Homo sapiens, UniProt Q9UEW8)",93.4%
"Cyclin-dependent kinase 5, with p25 (CDK5, Homo sapiens, UniProt Q00535)",61.9%
"OXSR1 (Homo sapiens, UniProt O95747)",86.6%
"MAPK9 (Homo sapiens, UniProt P45984)",96.5%
"TGFBR1 (Homo sapiens, UniProt P36897)",94.8%
"STK10 (Homo sapiens, UniProt O94804)",95%
"GRK3 (Homo sapiens, UniProt P35626)",84.5%
"CHEK2 (Homo sapiens, UniProt O96017)",100%
"PRKACA (Homo sapiens, UniProt P17612)",95.9%
"NEK2 (Homo sapiens, UniProt P51955)",96.4%
"TGFBR2 (Homo sapiens, UniProt P37173)",77.6%

# Sample 4
# Organism: Sarcocystis neurona
# Effect on: parasite activity
# Concentration: concentration not given
Compound,activity class
Cl.Cn1c(NCCN(CCO)CCCc2ccc([N+](=O)[O-])cc2)cc(=O)n(C)c1=O,inactive
Cl.NC[C@H](O)c1ccc(O)c(O)c1,inactive
CN(CCOc1ccc(CC2SC(=O)NC2=O)cc1)c1ccccn1.Cl (centres unmarked),inactive
CC(CCCCC(=O)Nc1ccc(C(F)(F)F)cc1)NCCc1cnc[nH]1 (centres unmarked),inactive
CC1(C)S[C@@H]2[C@H](NC(=O)Cc3ccccc3)C(=O)N2[C@H]1C(=O)[O-].[K+],inactive
CC1=C(C(=O)O)N2C(=O)[C@@H](NC(=O)[C@H](N)c3ccccc3)[C@H]2SC1.O,inactive
COc1cc(OC)c(C(=O)CCCN2CCCC2)c(OC)c1.Cl,inactive
C[C@H](N[C@@H](CCc1ccccc1)C(=O)O)C(=O)N1CCC[C@H]1C(=O)O,inactive
